Published values collected from several papers.
Protocols differ between the studies behind these lines. “And” joins repeats or separate records; there may be more than shown. ± marks the error that the study gave.
CA1: Carbonic anhydrase 1 (CA1, Homo sapiens, UniProt P00915)
Chain of UniProt P00915 (whole entry, looked up): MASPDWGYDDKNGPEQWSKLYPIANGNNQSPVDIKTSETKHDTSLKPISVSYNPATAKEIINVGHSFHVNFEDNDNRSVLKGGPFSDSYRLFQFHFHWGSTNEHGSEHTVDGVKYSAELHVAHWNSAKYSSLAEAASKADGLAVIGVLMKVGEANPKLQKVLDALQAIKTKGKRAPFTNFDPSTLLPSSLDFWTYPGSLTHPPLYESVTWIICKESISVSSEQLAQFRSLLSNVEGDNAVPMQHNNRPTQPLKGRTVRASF
Mapk1: Mitogen-activated protein kinase 1 (Mapk1, Rattus norvegicus, UniProt P63086)
Chain of UniProt P63086 (whole entry, looked up): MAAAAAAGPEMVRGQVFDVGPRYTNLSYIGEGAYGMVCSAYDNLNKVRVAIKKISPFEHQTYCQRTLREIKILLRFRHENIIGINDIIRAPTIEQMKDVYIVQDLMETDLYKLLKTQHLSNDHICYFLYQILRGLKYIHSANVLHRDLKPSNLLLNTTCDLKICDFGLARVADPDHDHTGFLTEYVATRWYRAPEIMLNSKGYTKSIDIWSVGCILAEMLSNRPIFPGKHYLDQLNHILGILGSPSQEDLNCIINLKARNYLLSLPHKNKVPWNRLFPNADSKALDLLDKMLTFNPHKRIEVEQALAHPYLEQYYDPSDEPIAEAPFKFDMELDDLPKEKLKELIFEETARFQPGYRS
PFF0160c: Dihydroorotate dehydrogenase (quinone), mitochondrial (PFF0160c, Plasmodium falciparum, UniProt Q08210)
Chain of UniProt Q08210 (whole entry, looked up): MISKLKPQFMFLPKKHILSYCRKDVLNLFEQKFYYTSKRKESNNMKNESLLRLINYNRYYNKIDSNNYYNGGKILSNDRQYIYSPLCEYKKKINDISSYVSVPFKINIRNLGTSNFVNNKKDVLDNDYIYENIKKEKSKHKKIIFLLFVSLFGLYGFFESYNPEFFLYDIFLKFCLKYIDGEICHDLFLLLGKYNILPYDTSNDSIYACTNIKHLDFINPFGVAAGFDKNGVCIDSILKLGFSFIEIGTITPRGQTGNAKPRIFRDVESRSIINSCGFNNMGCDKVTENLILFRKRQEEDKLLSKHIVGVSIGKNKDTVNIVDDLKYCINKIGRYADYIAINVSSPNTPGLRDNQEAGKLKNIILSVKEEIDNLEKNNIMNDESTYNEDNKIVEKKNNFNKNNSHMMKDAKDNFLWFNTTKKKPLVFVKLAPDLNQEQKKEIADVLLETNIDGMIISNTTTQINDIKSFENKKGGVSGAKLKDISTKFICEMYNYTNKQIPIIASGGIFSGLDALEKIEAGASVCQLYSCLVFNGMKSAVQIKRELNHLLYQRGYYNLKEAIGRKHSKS
Chain of UniProt Q9Y6F1 (whole entry, looked up): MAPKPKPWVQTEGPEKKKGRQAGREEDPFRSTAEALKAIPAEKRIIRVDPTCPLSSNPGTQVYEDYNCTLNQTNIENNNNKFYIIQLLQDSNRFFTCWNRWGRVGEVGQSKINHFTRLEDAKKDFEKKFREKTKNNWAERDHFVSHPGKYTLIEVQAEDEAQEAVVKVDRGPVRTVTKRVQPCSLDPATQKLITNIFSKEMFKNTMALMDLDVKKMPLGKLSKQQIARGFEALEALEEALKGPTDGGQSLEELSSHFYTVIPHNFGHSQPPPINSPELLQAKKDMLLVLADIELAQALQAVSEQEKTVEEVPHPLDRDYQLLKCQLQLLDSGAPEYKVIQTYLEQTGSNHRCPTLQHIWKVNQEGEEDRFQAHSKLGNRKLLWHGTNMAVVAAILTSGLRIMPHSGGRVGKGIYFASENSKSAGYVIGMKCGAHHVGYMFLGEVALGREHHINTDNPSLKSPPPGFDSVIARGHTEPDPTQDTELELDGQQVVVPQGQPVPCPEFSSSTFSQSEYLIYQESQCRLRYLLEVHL
Chain of UniProt P05177 (whole entry, looked up): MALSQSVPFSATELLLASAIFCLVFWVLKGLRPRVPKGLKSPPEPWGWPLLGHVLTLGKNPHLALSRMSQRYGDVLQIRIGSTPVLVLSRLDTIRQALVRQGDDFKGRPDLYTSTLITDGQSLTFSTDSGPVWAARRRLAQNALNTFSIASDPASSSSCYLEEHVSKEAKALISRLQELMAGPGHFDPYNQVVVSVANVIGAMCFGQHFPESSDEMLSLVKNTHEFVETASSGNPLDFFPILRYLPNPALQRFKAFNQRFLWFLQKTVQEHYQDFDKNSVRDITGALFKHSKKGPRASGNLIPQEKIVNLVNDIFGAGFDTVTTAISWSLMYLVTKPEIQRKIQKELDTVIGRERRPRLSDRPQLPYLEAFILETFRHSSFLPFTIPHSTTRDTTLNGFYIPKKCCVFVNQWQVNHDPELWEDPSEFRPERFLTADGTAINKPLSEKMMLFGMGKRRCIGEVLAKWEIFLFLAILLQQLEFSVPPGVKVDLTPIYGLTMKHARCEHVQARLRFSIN
Chain of UniProt P00157 (whole entry, looked up): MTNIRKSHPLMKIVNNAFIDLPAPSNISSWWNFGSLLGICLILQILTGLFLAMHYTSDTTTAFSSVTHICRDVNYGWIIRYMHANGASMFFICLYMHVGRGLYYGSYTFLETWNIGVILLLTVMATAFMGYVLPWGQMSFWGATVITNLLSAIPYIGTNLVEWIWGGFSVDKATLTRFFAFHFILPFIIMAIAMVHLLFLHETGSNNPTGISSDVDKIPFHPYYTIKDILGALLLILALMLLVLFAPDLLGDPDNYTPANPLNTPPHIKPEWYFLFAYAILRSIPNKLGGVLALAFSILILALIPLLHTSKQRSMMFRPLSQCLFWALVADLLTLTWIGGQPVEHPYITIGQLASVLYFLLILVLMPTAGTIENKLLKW
Chain of UniProt Q9ULW8 (whole entry, looked up): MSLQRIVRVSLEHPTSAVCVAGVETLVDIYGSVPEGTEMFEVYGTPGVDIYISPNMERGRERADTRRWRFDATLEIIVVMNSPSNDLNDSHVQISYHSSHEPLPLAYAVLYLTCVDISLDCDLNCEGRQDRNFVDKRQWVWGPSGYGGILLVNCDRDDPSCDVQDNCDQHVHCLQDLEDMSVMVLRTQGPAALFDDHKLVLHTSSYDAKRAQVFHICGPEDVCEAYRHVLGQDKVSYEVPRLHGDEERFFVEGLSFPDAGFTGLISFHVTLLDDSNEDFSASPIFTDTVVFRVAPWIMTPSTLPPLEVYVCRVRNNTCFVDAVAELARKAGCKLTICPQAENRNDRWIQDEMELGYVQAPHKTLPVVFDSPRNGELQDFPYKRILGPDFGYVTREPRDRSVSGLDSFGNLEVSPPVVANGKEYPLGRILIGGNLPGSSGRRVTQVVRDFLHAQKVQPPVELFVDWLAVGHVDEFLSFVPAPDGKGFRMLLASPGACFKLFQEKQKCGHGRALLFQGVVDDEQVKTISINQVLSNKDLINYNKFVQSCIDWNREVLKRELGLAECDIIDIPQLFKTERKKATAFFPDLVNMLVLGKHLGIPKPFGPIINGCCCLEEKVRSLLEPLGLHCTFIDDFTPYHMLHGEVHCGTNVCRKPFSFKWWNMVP
Chain of UniProt O00748 (whole entry, looked up): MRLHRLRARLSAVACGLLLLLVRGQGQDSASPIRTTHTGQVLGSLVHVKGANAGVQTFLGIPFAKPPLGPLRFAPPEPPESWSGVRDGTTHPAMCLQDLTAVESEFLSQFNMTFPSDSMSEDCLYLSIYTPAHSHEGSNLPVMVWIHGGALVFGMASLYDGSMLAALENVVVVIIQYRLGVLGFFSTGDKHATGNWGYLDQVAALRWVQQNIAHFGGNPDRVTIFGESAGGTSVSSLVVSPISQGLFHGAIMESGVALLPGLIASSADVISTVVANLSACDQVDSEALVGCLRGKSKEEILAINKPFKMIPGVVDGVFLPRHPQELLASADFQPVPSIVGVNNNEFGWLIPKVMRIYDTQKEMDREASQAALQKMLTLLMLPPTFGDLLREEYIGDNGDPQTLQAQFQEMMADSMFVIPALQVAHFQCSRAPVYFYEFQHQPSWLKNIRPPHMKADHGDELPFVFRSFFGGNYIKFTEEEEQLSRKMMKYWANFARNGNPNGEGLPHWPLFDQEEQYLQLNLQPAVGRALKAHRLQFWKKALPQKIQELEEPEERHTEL
Chain of UniProt Q08345 (whole entry, looked up): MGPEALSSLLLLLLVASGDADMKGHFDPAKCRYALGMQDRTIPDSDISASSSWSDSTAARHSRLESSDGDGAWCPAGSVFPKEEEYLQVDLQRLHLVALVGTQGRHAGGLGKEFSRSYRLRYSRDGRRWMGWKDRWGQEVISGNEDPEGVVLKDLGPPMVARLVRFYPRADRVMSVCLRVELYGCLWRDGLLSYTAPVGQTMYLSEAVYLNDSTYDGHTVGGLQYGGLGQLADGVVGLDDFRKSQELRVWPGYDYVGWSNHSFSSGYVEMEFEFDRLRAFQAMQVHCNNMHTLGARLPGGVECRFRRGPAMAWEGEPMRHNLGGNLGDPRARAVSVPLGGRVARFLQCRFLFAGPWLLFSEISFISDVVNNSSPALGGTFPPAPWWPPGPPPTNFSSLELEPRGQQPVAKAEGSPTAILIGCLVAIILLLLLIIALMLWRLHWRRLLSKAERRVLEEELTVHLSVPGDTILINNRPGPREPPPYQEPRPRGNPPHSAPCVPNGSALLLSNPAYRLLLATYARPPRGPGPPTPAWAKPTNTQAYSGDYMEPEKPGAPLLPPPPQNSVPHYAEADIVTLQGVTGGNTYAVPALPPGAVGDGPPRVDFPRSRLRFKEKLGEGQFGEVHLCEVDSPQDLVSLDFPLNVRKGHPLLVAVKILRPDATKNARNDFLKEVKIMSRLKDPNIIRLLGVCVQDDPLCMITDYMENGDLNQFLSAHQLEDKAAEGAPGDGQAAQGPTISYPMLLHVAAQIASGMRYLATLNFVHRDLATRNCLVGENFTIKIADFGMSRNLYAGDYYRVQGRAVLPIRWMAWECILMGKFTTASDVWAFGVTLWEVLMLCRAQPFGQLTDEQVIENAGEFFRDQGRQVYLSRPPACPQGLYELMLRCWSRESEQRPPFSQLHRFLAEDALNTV
Chain of UniProt P25084 (whole entry, looked up): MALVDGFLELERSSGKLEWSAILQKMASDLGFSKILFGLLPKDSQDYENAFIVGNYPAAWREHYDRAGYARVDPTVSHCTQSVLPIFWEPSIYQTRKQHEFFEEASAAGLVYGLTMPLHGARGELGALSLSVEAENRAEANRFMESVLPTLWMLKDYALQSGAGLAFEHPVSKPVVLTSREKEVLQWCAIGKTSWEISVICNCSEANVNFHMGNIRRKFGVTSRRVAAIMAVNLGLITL

SMILES	target or system	assay	system	setting	how to read	endpoint	value
O=S(=O)(N/N=C/c1ccc(OS(=O)(=O)c2cc(Cl)ccc2Cl)cc1)c1ccc(Cl)cc1	CA1	enzyme activity, inhibitor, absorbance	–	–	–	IC50	222 nM
CC(C)C[C@H](NC(=O)[C@H](CCCNC(=N)N)NC(=O)[C@H](CC(C)C)NC(=O)[C@H](Cc1ccc(O)cc1)NC(=O)[C@H](CCCCN)NC(=O)[C@H](Cc1c[nH]cn1)NC(=O)[C@H](C)NC(=O)[C@H](CCCCN)NC(=O)[C@H](CCCNC(=N)N)NC(=O)[C@@H]1CCCN1C(=O)[C@H](CCCCN)NC(=O)[C@H](CCCNC(=N)N)NC(=O)[C@H](C)NC(=O)[C@@H](N)Cc1ccc(O)cc1)C(=O)N[C@@H](CO)C(=O)N[C@@H](CCCNC(=N)N)C(=O)O	Mapk1	enzyme activity, inhibitor, fluorescence	–	pH 7.4	–	IC50	35500 nM
CCN(C)C(=O)Oc1ccccc1/C=C1\Cc2cc(OC)c(OC)cc2C1=O	ACHE (Homo sapiens, UniProt P22303)	enzyme activity, inhibitor	–	–	–	IC50	> 10000 nM
Cc1ccc(CNC(=O)c2ccn3c(-c4ccc(C#N)cc4)cnc3c2)cn1	Cytochrome P450 1A2 (CYP1A2, Homo sapiens, UniProt P05177)	enzyme activity, inhibitor	–	–	–	IC50	> 10000 nM
O=C(O)CCn1c(=O)oc2cc(Cl)c(Cl)cc21	CHRNA1/Acetylcholine receptor subunit delta (Homo sapiens, UniProt P02708+Q07001)	ion current, blocker	–	–	–	IC50	> 50100 nM
CSCC[C@H](NC(=O)[C@H](CC(C)C)NC(=O)[C@H](C)NC(=O)[C@@H](N)Cc1ccc(O)cc1)C(=O)N[C@@H](CCC(=O)O)C(=O)N[C@@H](CCCNC(=N)N)C(=O)N[C@@H](CCCNC(=N)N)C(=O)N[C@@H](CCCNC(=N)N)C(=O)N[C@@H](CC(C)C)C(=O)N[C@@H](CC(N)=O)C(=O)N[C@@H](CCC(N)=O)C(=O)N[C@@H](CC(C)C)C(=O)N[C@@H](CC(C)C)C(=O)N[C@@H](CC(C)C)C(=O)N1CCC[C@H]1C(=O)N[C@@H](CC(C)C)C(=O)O	Mapk1	enzyme activity, inhibitor, fluorescence	–	pH 7.4	–	IC50	45000 nM
C=C1NC(=O)[C@H](C)NC(=O)[C@H](Cc2ccccc2)NC(=O)[C@H](CCCNC(=N)N)NC(=O)[C@H](CCSC)NC(=O)CNC(=O)[C@H]([C@@H](C)CC)NC(=O)[C@H](CCC(N)=O)NC(=O)[C@H]([C@@H](C)CC)NC(=O)[C@H](CC(=O)O)NC(=O)[C@H](Cc2c[nH]c3ccccc23)NC(=O)[C@H](Cc2c[nH]c3ccccc23)NC(=O)c2ccc(-c3nc(C(=O)OC)cs3)nc2-c2csc1n2	TNIK (Homo sapiens, UniProt Q9UKE5)	enzyme activity, inhibitor, ADP detection	–	–	–	IC50	9100 nM
CC[C@H](C)[C@H](NC(=O)[C@H](CC(C)C)NC(=O)[C@@H]1CCCN1C(=O)[C@H](CCC(=O)O)NC(=O)[C@@H]1CCCN1C(=O)[C@H](CCCNC(=N)N)NC(=O)[C@@H]1CCCN1C(=O)[C@H](CCCNC(=N)N)NC(=O)[C@H](CCC(N)=O)NC(=O)[C@H](CCCCN)NC(=O)[C@@H]1CCCN1C(=O)[C@H](C)NC(=O)[C@@H](N)Cc1ccc(O)cc1)C(=O)N[C@H](C(=O)N1CCC[C@H]1C(=O)N[C@H](C(=O)O)[C@@H](C)O)[C@@H](C)CC	Mapk1	enzyme activity, inhibitor, fluorescence	–	pH 7.4	–	IC50	10200 nM
Cc1[nH]c(C)c(S(=O)(=O)NC(C)(C)C)c1C(=O)N1CCCC1	DRD3 (Homo sapiens, UniProt P35462)	Go activation, antagonist, BRET	–	together with: dopamine	–	IC50	> 100000 nM
N[C@H](C(=O)N1CCCC1)C1CCN(c2nccc3c(-c4ncc(Cl)cc4Cl)cccc23)CC1	PADI3 (Homo sapiens, UniProt Q9ULW8)	enzyme activity, inhibitor	–	–	–	IC50	106 nM
O=S(=O)(N/N=C/c1ccc(OS(=O)(=O)c2ccccc2)cc1)c1ccc(Cl)cc1	CA1	enzyme activity, inhibitor, absorbance	–	–	–	IC50	179 nM
O=C(c1cc(Cc2n[nH]c(=O)c3ccccc23)ccc1F)N1CC(CNC2CC2)C1	PARP3 (Homo sapiens, UniProt Q9Y6F1)	enzyme activity, inhibitor	–	–	–	IC50	780 nM and ~780 nM
Cc1nc2ccc(-c3ccc(OC(F)(F)F)cc3)cc2c(O)c1C#N	PFF0160c	enzyme activity, inhibitor, absorbance	–	–	–	IC50	2530 nM
N#Cc1c(Cl)ccc2c1C1(CCN(C(=O)c3cnc4[nH]ncc4c3)CC1)C(=O)N2CC(=O)NCC(F)(F)F	DDR1 (Homo sapiens, UniProt Q08345)	ligand displacement	–	–	–	IC50	38 nM
O=C1NC(=O)c2c1c1cc(F)c[n+]3c1c1c2c2cc(O)ccc2[n]1[Ru-4]312([N]=C=S)[S+]3CC[S+]1CC[S+]2CC3 (stereo not shown)	RPS6KA4 (Homo sapiens, UniProt O75676)	enzyme activity	–	100 nM, human enzyme, together with: 10 µM ATP	relative to: untreated	remaining activity	4%
CC[C@H](C)[C@H](NC(=O)[C@@H](NC(=O)[C@H](CC(C)C)NC(=O)[C@H](C)NC(=O)[C@@H]1CCCN1C(=O)[C@H](CC(C)C)NC(=O)[C@@H](NC(=O)[C@@H]1CCCN1C(=O)[C@H](CCCCN)NC(=O)[C@H](CCCNC(=N)N)NC(=O)[C@H](CCCNC(=N)N)NC(=O)[C@H](C)NC(=O)[C@H](C)NC(=O)[C@@H](N)Cc1ccc(O)cc1)C(C)C)[C@@H](C)O)C(=O)N[C@@H](CC(N)=O)C(=O)N1CCC[C@H]1C(=O)O	Mapk1	enzyme activity, inhibitor, fluorescence	–	pH 7.4	–	IC50	27000 nM
COc1ccccc1-n1c(SCC(=O)Nc2ccccc2F)nc2cccnc21	PFF0160c	enzyme activity, inhibitor, absorbance	–	–	–	IC50	2780 nM

SMILES	target or system	assay	system	setting	how to read	endpoint	value
CCCCCCCCCCCCCCCCCC(=O)NC[C@H]1CC[C@H](C(=O)N[C@@H](CCC(=O)NCCCOCCOCCOCCCNC(=O)COCC(=O)N[C@@H](Cc2ccc(O)cc2)C(=O)NC(C)(Cc2ccccc2)C(=O)N[C@@H](CC(C)C)C(=O)N[C@@H](CCCC)C(=O)N[C@@H](CCCNC(=N)N)C(=O)N2CCC[C@H]2C(=O)N[C@@H](CCCNC(=N)NC)C(=O)N[C@@H](CC(N)=O)C(N)=O)C(=O)O)CC1 (stereo partly shown)	NMUR2 (Homo sapiens, UniProt Q9GZQ4)	ligand displacement, radioligand	–	cell membranes	–	IC50	0.91 nM
COc1cc(CN2CCN(C(=O)Cc3ccccc3)CC2)cc(OC)c1O	Alpha-synuclein, fibrils (SNCA, Homo sapiens, UniProt P37840)	fibril growth, conformation-specific ELISA	–	20 h, together with: 6 µM monomer	–	IC50	2000 ± 2000 nM
C[C@@H]1COCCN1c1nc(NCc2cccnc2C(F)(F)F)c2cccnc2n1	human NMDA receptor	–	–	agonist mode	–	IC50	> 100000 nM
O=C(O[C@@H]1Cc2c(O)cc(O)cc2O[C@@H]1c1cc(O)c(O)c(O)c1)c1cc(O)c(O)c(O)c1	Fructose-bisphosphate aldolase (Candida albicans, UniProt Q9URB4)	enzyme activity, inhibitor, absorbance	–	–	–	IC50	561 nM
O=c1cc(-c2ccc(Cc3ccc(F)cc3)cc2)[nH]c2ccccc12	MT-CYB (Bos taurus, UniProt P00157)	enzyme activity, inhibitor	–	–	–	IC50	190 nM
COc1cc(C[C@H](C)[C@H](C)Cc2ccc3c(c2)OCO3)ccc1O	Cocaine esterase (CES2, Homo sapiens, UniProt O00748)	enzyme activity, inhibitor, fluorescence	–	–	–	IC50	1390 nM
OC[C@@H]1[C@@H](O)[C@H](O)[C@@H](O)[C@@H]2N[C@H]12	bglA (Thermotoga maritima, UniProt Q08638)	enzyme activity, inhibitor	–	pH 6.8, with preincubation	–	IC50	130 nM
O=C(CCc1ccc(Br)cc1)N[C@H]1CCOC1=O	lasR (Pseudomonas aeruginosa, UniProt P25084)	reporter gene, antagonist	Escherichia coli, JLD271 with LasR plasmid	together with: OdDHL 1 nM	–	IC50	210 nM
CC[C@H](C)[C@H](NC(=O)[C@@H](NC(=O)[C@H](CCC(=O)O)NC(=O)[C@H](CCSC)NC(=O)[C@H](CCC(N)=O)NC(=O)[C@H](CCCNC(=N)N)NC(=O)[C@H](CCCNC(=N)N)NC(=O)[C@H](CC(N)=O)NC(=O)[C@H](CCCNC(=N)N)NC(=O)[C@H](CC(C)C)NC(=O)[C@H](C)NC(=O)[C@@H](N)Cc1ccc(O)cc1)C(C)C)C(=O)N[C@@H](CO)C(=O)N[C@@H](CC(C)C)C(=O)N[C@@H](CCCNC(=N)N)C(=O)N[C@@H](CC(C)C)C(=O)O	Mapk1	enzyme activity, inhibitor, fluorescence	–	pH 7.4	–	IC50	41400 nM
CCN(N=Cc1cnc2ccc(Br)cn12)S(=O)(=O)c1cc([N+](=O)[O-])ccc1C	PIK3CA (Homo sapiens, UniProt P42336, I771Y)	enzyme activity, inhibitor	–	–	–	IC50	661 nM
CC12CCC3C4CCC(C#N)CC4CCC3C1CCC2O (stereo not shown)	CNR1 (Homo sapiens, UniProt P21554)	cAMP, antagonist	–	–	–	IC50	9550 nM
CC(C)C[C@H](NC(=O)[C@H](CC(=O)O)NC(=O)[C@@H](N)CO)C(=O)N1CCC[C@H]1C(=O)N[C@@H](Cc1ccccc1)C(=O)N[C@H](CCC(=O)O)C(=O)N[C@@H](Cc1ccccc1)C(N)=O	Transcriptional regulator PlcR (Bacillus thuringiensis, UniProt A0ACM8Q0N2)	reporter gene, inhibitor, lacZ reporter	407 Cry−	1 h, phase, late exponential, added at	–	IC50	2570 ± 343 nM
CC[C@H](C)[C@H](NC(=O)CNC(=O)[C@H](C)NC(=O)[C@H](CCSC)NC(=O)[C@H](CCCNC(=N)N)NC(=O)[C@H](CCCCN)NC(=O)[C@H](Cc1c[nH]c2ccccc12)NC(=O)[C@H](CO)NC(=O)[C@H](CC(C)C)NC(=O)[C@H](CS)NC(=O)[C@H](C)NC(=O)[C@@H](N)Cc1ccc(O)cc1)C(=O)N[C@@H](Cc1ccccc1)C(=O)N[C@@H](Cc1ccccc1)C(=O)N[C@@H](CC(C)C)C(=O)N1CCC[C@H]1C(=O)O	Mapk1	enzyme activity, inhibitor, fluorescence	–	pH 7.4	–	IC50	12100 nM
CC(C)N1CCCCC1C(=O)NC(Cc1ccc(-c2ccccc2)cc1)B(O)O (stereo not shown)	Proteasome subunit beta type-10 / Proteasome subunit beta type-3 (Homo sapiens, UniProt P40306+P49720)	β2i activity, inhibitor	–	immunoproteasome, together with: Ac-KQL-AMC	–	IC50	> 10000 nM
O=S(=O)(F)c1cccc(S(=O)(=O)Nc2ccc(C3CC3)c(F)c2)c1	GTPase KRas (KRAS, Homo sapiens, UniProt P01116)	SOS1-coupled RAF binding, AlphaScreen	–	24 h	–	IC50	141000 ± 12000 nM
CC[C@H](C)[C@H](NC(=O)[C@H](Cc1ccc(O)cc1)NC(=O)[C@H](CC(C)C)NC(=O)[C@H](CCCNC(=N)N)NC(=O)[C@H](CCCCN)NC(=O)[C@@H](NC(=O)[C@H](CCCCN)NC(=O)[C@H](CCCCN)NC(=O)[C@H](CCCCN)NC(=O)[C@@H](NC(=O)[C@H](CCC(N)=O)NC(=O)[C@H](Cc1ccccc1)NC(=O)[C@H](C)NC(=O)[C@@H](N)Cc1ccc(O)cc1)[C@@H](C)CC)[C@@H](C)O)C(=O)N[C@@H](CC(N)=O)C(=O)N[C@@H](CCCCN)C(=O)O	Mapk1	enzyme activity, inhibitor, fluorescence	–	pH 7.4	–	IC50	84400 nM
O=C1NC2(CC2)COc2ncc(F)cc2[C@H]2COCCN2c2ccn3ncc1c3n2	–	–	Sprague-Dawley rat, female, liver	oral, 2.5 mg/kg/day, 4 weeks dosing, end of recovery	–	organ-to-brain weight ratio	436 ± 40.9%

Excerpt of the above:
SMILES	target or system	assay	system	setting	how to read	endpoint	value
O=C1NC(=O)c2c1c1cc(F)c[n+]3c1c1c2c2cc(O)ccc2[n]1[Ru-4]312([N]=C=S)[S+]3CC[S+]1CC[S+]2CC3 (stereo not shown)	RPS6KA4 (Homo sapiens, UniProt O75676)	enzyme activity	–	100 nM, human enzyme, together with: 10 µM ATP	relative to: untreated	remaining activity	4%
O=C(O[C@@H]1Cc2c(O)cc(O)cc2O[C@@H]1c1cc(O)c(O)c(O)c1)c1cc(O)c(O)c(O)c1	Fructose-bisphosphate aldolase (Candida albicans, UniProt Q9URB4)	enzyme activity, inhibitor, absorbance	–	–	–	IC50	561 nM
Cc1nc2ccc(-c3ccc(OC(F)(F)F)cc3)cc2c(O)c1C#N	PFF0160c	enzyme activity, inhibitor, absorbance	–	–	–	IC50	2530 nM
COc1cc(CN2CCN(C(=O)Cc3ccccc3)CC2)cc(OC)c1O	Alpha-synuclein, fibrils (SNCA, Homo sapiens, UniProt P37840)	fibril growth, conformation-specific ELISA	–	20 h, together with: 6 µM monomer	–	IC50	2000 ± 2000 nM
O=C1NC2(CC2)COc2ncc(F)cc2[C@H]2COCCN2c2ccn3ncc1c3n2	–	–	Sprague-Dawley rat, female, liver	oral, 2.5 mg/kg/day, 4 weeks dosing, end of recovery	–	organ-to-brain weight ratio	436 ± 40.9%
